Published values gathered from unrelated publications.
Each line is one published result; not all experiments were run side by side. “And” joins repeats or separate records; there may be more than shown. Numbers after ± are the reported error.

SMILES | assay | test system | conditions | how to read | quantity | value
C[C@@H](NC(=O)N1C(=O)[C@H](Cc2ccnc(N)c2)[C@H]1C(=O)O)C1CCCCC1 | – | healthy adult Chinese volunteers | continuous intravenous infusion, 1.5 mg/kg/h, 5-day infusion, CTCAE 5.0 grading | – | incidence of elevated blood uric acid | 0%
O=C(O)C(O)(c1cccs1)c1cccs1 | refers to: metabolite | human, plasma | oral, 50 mg once daily, 5 days, median | – | dose-normalised free Cmax | 0.0132 (ng/mL)/mg
COc1cccc(Oc2ccccc2NC(=O)CNC(=O)c2cccc3ccccc23)c1 | – | esterase-deficient SCID mice, male | oral, 15 mg/kg/day, 14 days, toxicity study | – | unconjugated bilirubin | 0.2 mg/dL and 0.1 mg/dL
CCNCCCNC/C=C\CNCCCNCC | – | human, advanced solid tumours | intravenous, dose not given | reference: patients | drug-related mucosal inflammation | 26.1%
CN(C(=O)n1cnc(-c2ccc[n+]([O-])c2)c1)C1CCCCC1 | – | Wistar rat, midbrain | oral, 10 mg/kg/day, 24 h, repeated 5 days | – | concentration | 12.9 ± 1.5 ng/g
CC(C)C[C@H](NC(=O)[C@H](CCCCN)NC(=O)OCC1c2ccccc2-c2ccccc21)C(=O)N[C@H](C(=O)N[C@@H](Cc1ccccc1)C(=O)N[C@@H](Cc1ccccc1)C(=O)N[C@@H](CCCCN)C(=O)NCC(=O)N[C@@H](Cc1ccccc1)C(=O)N[C@@H](C)C(=O)N[C@@H](Cc1c[nH]c2ccccc12)C(=O)N[C@@H](CC(N)=O)C(=O)N[C@H](C(=O)N[C@H]1CSSC[C@@H](C(=O)N[C@@H](Cc2c[nH]cn2)C(=O)N[C@@H](CCCNC(=N)N)C(=O)N[C@@H](CCCNC(=N)N)C(=O)N[C@@H](C)C(=O)N[C@@H](CC(N)=O)C(N)=O)NC(=O)[C@H](C(C)C)NC(=O)[C@H](CCCNC(=N)N)NC(=O)[C@H](C(C)C)NC(=O)CNC(=O)[C@H](CC(N)=O)NC(=O)[C@H](CCCNC(=N)N)NC(=O)[C@H](Cc2ccc(O)cc2)NC(=O)[C@H](C(C)C)NC1=O)C(C)C)C(C)C | – | ICR mice, serum | intraductal mammary, 5 mg/kg, day 5 | – | phosphorus | 3.31 ± 0.12 mmol/L
[131I-].[Na+] | – | hyperthyroidism patients | 185 MBq, long-term follow-up | – | atrial fibrillation incidence | 0.4%
O=S(=O)(Nc1ccccc1)c1ccc(NC(=S)Nc2ccccc2)cc1 | refers to: BA% | female mouse, blood | oral, 20 mg/kg daily, 14 days | – | blood cell fraction | 0.13%
COc1ccc([C@@H](O)c2cc(-c3ncnc4cc(N5CCOCC5)ccc34)c(F)cc2Cl)nn1 | – | patients, advanced solid tumours | oral, 400 mg twice daily, treatment-emergent, added: avelumab | – | gastrointestinal disorders incidence | 4%
CC[C@H](C)[C@H](NC(=O)[C@H](Cc1ccccc1)NC(=O)[C@H](CCC(=O)O)NC(=O)[C@H](CCCNC(=N)N)NC(=O)[C@H](C)NC(=O)[C@H](C)NC(=O)[C@H](CCC(N)=O)NC(=O)[C@H](CCC(=O)O)NC(=O)[C@H](CCC(=O)O)NC(=O)[C@H](CC(C)C)NC(=O)[C@H](Cc1ccc(O)cc1)NC(=O)[C@H](CO)NC(=O)[C@H](CO)NC(=O)[C@@H](NC(=O)[C@H](CC(=O)O)NC(=O)[C@H](CO)NC(=O)[C@@H](NC(=O)[C@H](Cc1ccccc1)NC(=O)[C@@H](NC(=O)CNC(=O)[C@H](CCC(=O)O)NC(=O)[C@H](C)NC(=O)CCc1cnc[nH]1)[C@@H](C)O)[C@@H](C)O)C(C)C)C(=O)N[C@@H](C)C(=O)N[C@@H](Cc1c[nH]c2ccccc12)C(=O)N[C@@H](CC(C)C)C(=O)N[C@H](C(=O)N[C@@H](CCCNC(=N)N)C(=O)NCC(=O)N[C@@H](CCCNC(=N)N)C(=O)N[C@@H](CCCCNC(=O)COCCOCCNC(=O)COCCOCCNC(=O)CC[C@H](NC(=O)CCCCCCCCCCCCCCCCC(=O)O)C(=O)O)C(=O)NCC(=O)NCC(=O)N[C@@H](CO)C(=O)N[C@@H](CCSC)C(=O)N[C@H](C(=O)N[C@@H](CCCCNc1c(NCCCCCN(O)C(=O)CCC(=O)NCCCCCN(O)C(=O)CCC(=O)NCCCCCN(O)C(C)=O)c(=O)c1=O)C(=O)O)C(C)C)C(C)C [zirconium-89 labelled] | ex vivo gamma counting | male Sprague-Dawley rats, liver | intravenous, 1 nmol, 72 h, mean of 3 animals | – | tissue uptake | 1.31 %ID/g
CC(C)C[C@H](NC(=O)[C@H](Cc1ccccc1)NC(=O)[C@H](Cc1ccccc1)NC(=O)Cc1ccc(-c2ccccc2)cc1)C(=O)N[C@@H](CCCCN)C(=O)N[C@@H](CCCNC(=N)N)C(=O)N[C@H](C(=O)N[C@@H](Cc1c[nH]c2ccccc12)C(=O)N[C@@H](CCCCN)C(=O)N[C@@H](CCCNC(=N)N)C(=O)O)C(C)C | – | rat liver microsomes | – | – | intrinsic clearance | 487 mL/min/kg
CCc1ccc(CC/C=C/c2ccc3c(c2)C(=O)CC3)cc1 | – | Sprague-Dawley rat, male | oral, 450 mg/kg/day, 14 days | – | Urea | 5 mM
O=C(O)CCC(CP(=O)(O)O)C(=O)O (stereo not drawn) | – | rat plasma | 8 µg/mL, 4 h, room temperature, bench-top stability, diluted 1:10 | – | measured concentration | 7.89 ± 0.17 µg/mL
CC(C)(c1ccccc1)c1cc(-n2nc3ccccc3n2)c(O)c(C(C)(C)c2ccccc2)c1 | – | human aged 16-21 years | concentration not given, foundation, 95th percentile | – | daily dermal exposure dose | 1.69 ng/kg/day
COc1cc2c(Oc3ccc4[nH]c(C)cc4c3F)ccnc2cc1OCC1(N)CC1 | – | paediatric recurrent refractory sarcoma | 12 mg | – | grade 3 Thrombocytopenia | 0%
C[C@]1(CO)Cc2ncn(-c3ccc(C#N)c(Cl)c3)c2C(=O)O1 | – | healthy Chinese subjects | dose not given, single dose, all doses | – | subjects with TEAE | 25%
CC(C)CC(=O)OC[C@H]1O[C@@](C#N)(c2ccc3c(N)ncnn23)[C@H](O)[C@@H]1O | plasma protein binding | dog plasma | 90 µM, time not given | – | recovery | 101%

SMILES | assay | test system | conditions | how to read | quantity | value
CCC[C@@](N)(CO)CCc1ccc(OCCCCCC(C)C)cc1 | – | hound dogs, male | intravenous, 1.0 mg/kg, geometric mean | – | AUC(0-last) | 4.44 µM·h
O=C(Nc1ccccc1)C1CCN(C(=O)Oc2cccnc2)CC1 | – | healthy women | oral, 100 mg, 9 days | – | adverse event Headache | 23.1%
[Cl][212Pb][Cl] | – | athymic mice, C4-2 xenograft, testes | intravenous, 2 h, 212Pb-labelled | – | tissue uptake | 0.41 ± 0.07 %ID/g
Cn1cc(-c2nc(N[C@@H]3CCCC[C@@H]3N)c(F)c3c2C(=O)NC3)cn1 | refers to: Rectal haemorrhage | patients with relapsed or refractory AML | oral, dose not given, all doses | – | hemorrhagic adverse events | 9%
O=C1Nc2cc3[nH]nc(-c4ccncc4)c3cc2CN1Cc1ccccc1 | CTCAE v4.03 | human, relapsed or refractory advanced solid tumours | intravenous, 3.6 mg/kg | – | patients with subretinal fluid | 33%
COc1ccc2nc3cc(Cl)ccc3c(Nc3cc(CN4CCCC4)c(O)c(CN4CCCC4)c3)c2n1 | – | mouse, blood | intraperitoneal, 28 mg/kg | – | platelet distribution width | 15.6%
Cc1cccc(Cn2nc(C3CC3)c3c(NC(=O)c4cnc5cc(OCCN6CCN(C)CC6)ccn45)cccc32)n1 | CTCAE v4.03, refers to: all adverse events | platinum-resistant ovarian cancer patients | oral, dose not given, added: pembrolizumab IV every 3 weeks | – | all-cause adverse events | 90.9%
NC(=O)N1c2ccccc2C=Cc2ccccc21 | PAMPA | pre-coated trilayer membrane | 200 µM, 5 h, pH 7.4, acceptor plate, PBS | – | acceptor concentration | 43.8 ± 2.5 µM
CC[C@H](C)[C@H](NC(=O)[C@H](CCCCN)NC(=O)[C@H](CCC(=O)O)NC(=O)[C@H](CCCCN)NC(=O)[C@H](CO)NC(=O)[C@H](CCCCN)NC(=O)[C@H](CCCNC(=N)N)NC(=O)[C@H](Cc1ccccc1)NC(=O)[C@H](Cc1ccccc1)NC(=O)[C@H](CC(=O)O)NC(=O)CNC(=O)[C@H](CC(C)C)NC(=O)[C@@H](N)CC(C)C)C(=O)NCC(=O)N[C@@H](CCCCN)C(=O)N[C@@H](CCC(=O)O)C(=O)N[C@@H](Cc1ccccc1)C(=O)N[C@@H](CCCCN)C(=O)N[C@@H](CCCNC(=N)N)C(=O)N[C@H](C(=O)N[C@H](C(=O)N[C@@H](CCC(N)=O)C(=O)N[C@@H](CCCNC(=N)N)C(=O)N[C@H](C(=O)N[C@@H](CCCCN)C(=O)N[C@@H](CC(=O)O)C(=O)N[C@@H](Cc1ccccc1)C(=O)N[C@@H](CC(C)C)C(=O)N[C@@H](CCCNC(=N)N)C(=O)N[C@@H](CC(N)=O)C(=O)N[C@@H](CC(C)C)C(=O)N[C@H](C(=O)N1CCC[C@H]1C(=O)N[C@@H](CCCNC(=N)N)C(=O)N[C@H](C(=O)N[C@@H](CCC(=O)O)C(=O)N[C@@H](CO)C(=O)O)[C@@H](C)O)C(C)C)[C@@H](C)CC)C(C)C)[C@@H](C)CC | LC-MS | 50% pooled human serum | 40 µM, 720 min, pH 7.5, 37 °C | reference: 0 h | remaining intact peptide | 0%
CC(C)[C@H](C(=O)O[C@H](C#N)c1cccc(Oc2ccccc2)c1)c1ccc(Cl)cc1 | refers to: CYP2C8 | human, age 1 year | – | – | enzyme contribution to clearance | 0.97%
N[C@@H]1c2ccccc2OC12CCN(c1cnc3c(N4CCCc5ncccc54)n[nH]c3n1)CC2 | – | patients advanced metastatic solid tumours | oral, 60 mg once daily, pooled RP2D cohorts | – | incidence grade ≥3 TEAE | 56%
CC(=O)c1c(C)c2cnc(Nc3ccc(C4CCN(CCS(C)(=O)=O)CC4)cn3)nc2n(C2CCCC2)c1=O | – | human, plasma | oral, 25 mg, day 1 single dose | – | Tmax | 1.33 h
O=C(O)CNCP(=O)(O)O | – | whole cow milk | 2000 nM nominal | – | dose fraction in milk fat | 1.07%
CO[C@H]1C[C@@H]2CC[C@@H](C)[C@@](O)(O2)C(=O)C(=O)N2CCCC[C@H]2C(=O)O[C@H]([C@H](C)C[C@@H]2CC[C@@H](OC(=O)NCCOCCOCCOCCOCCOCCOCCOCCOCCC(=O)N3CCc4cc(Cn5nc(-c6ccc7oc(N)nc7c6)c6c(N)ncnc65)ccc4C3)[C@H](OC)C2)C[C@@H](O)[C@H](C)/C=C(\C)[C@@H](O)[C@@H](OC)C(=O)[C@H](C)C[C@H](C)/C=C/C=C/C=C/1C | – | patients with advanced solid tumours | intravenous, 8 mg weekly, any grade | – | fatigue incidence | 68.8%
CC(C)NCCCC[C@@H]1NC(=O)[C@H](Cc2ccc(O)cc2)NC(=O)[C@H](Cc2ccccc2)NC(=O)CC[C@H](C(=O)N[C@@H](CCCCNC(C)C)C(=O)N[C@@H](CCCCNC(=O)[C@H](CCC(=O)O)NC(=O)[C@H](CCC(=O)O)NC(=O)[C@H](CCC(=O)O)NC(=O)CN2CCN(CC(=O)O)CCN(CC(=O)O)CC2)C(N)=O)NC(=O)CNC(=O)[C@H](Cc2ccc3ccccc3c2)NC(=O)[C@@H](CCCNC(=N)N)NC1=O [fluorine-18 labelled] | PET | mouse, naive, bone | 4.5 min post-injection | – | peak SUV | 1.18 ± 0.15 g/mL
Nc1ncnc2c1ncn2[C@@H]1O[C@@H]2COP(=O)([S-])O[C@@H]3[C@H](O)[C@@H](COP([O-])(=S)O[C@H]2[C@H]1O)O[C@H]3n1cnc2c(N)ncnc21.[Na+].[Na+] (stereo partly drawn) | – | non-tumor-bearing mice, blood | intravenous, 1 mg/kg, toxicity study | – | MCH | 23.1 ± 0.33 pg
